Experimental data pooled from the literature.
Protocols differ between the studies behind these lines. Several values in a cell are separate wells, animals, samples, runs or records. Numbers after ± are the reported error.

SMILES	target or system	assay	test system	setting	how to read	measurement	value
Cc1cc(C)c(CNC(=O)c2cc(Cl)c3c(c2C)O[C@@](C)([C@H]2CC[C@H](N(C)C)CC2)O3)c(=O)[nH]1	–	refers to: Anemia	human patients	oral, 200 mg once daily, 1 day onset day 14	–	patients with grade ≥3 TEAE	4.2%
COc1ccc2c(=O)n(C)c(-c3ccccc3)nc2c1	–	–	male Sprague-Dawley rat, testis	oral, 30 mg/kg, 0.5 h	–	tissue concentration	32.4 ng/g
Cn1cc(-c2cn3nccc3c(-c3cnn([C@]4(CC#N)C[C@@H](C#N)C4)c3)n2)cn1	–	–	healthy humans fasted, plasma	oral, 30 mg single dose, geometric mean	–	dose-normalised AUC(0-t)	21.3 ng·h/mL/mg
CCc1c(-c2ccccc2)c(-c2ccccc2)nn1-c1ccccc1-c1cccc(OCC(=O)O)c1	–	–	Sprague-Dawley rat	intravenous	–	elimination rate constant	0.332 h⁻¹ and 0.475 h⁻¹ and 0.391 h⁻¹
CCn1c(C(=O)N(C2CC2)C2CC2)cc2c3c(ncn3C)c(Nc3cc(C)n(C)n3)nc21	–	–	cancer patients	oral, 200 mg twice daily, day 15, 340.0 h	–	plasma concentration	6350 ng/mL
COc1cc(Nc2ncc3c(n2)-c2ccc(Cl)cc2C(c2c(F)cccc2OC)=NC3)ccc1C(=O)O	–	refers to: Fatigue, grade 1	cancer patients, phase 1/2	oral, dose not given, added: pembrolizumab	–	patients with adverse event	46%
COc1c(OCCCN2CCOCC2)ccc2c1N=C(NC(=O)c1cnc(N)nc1)N1CCN=C21	–	–	human	–	baseline: Japan over other regions	decrease in clearance	20.4%
NC(=O)c1ccc(C(=O)Nc2cc(C3CC3)[nH]n2)cc1	–	–	octanol/buffer	pH 11	–	logP	1.25
Cn1cc(-c2ccc(-c3cncc(Cl)c3N3CCC4(CCNC4=O)CC3)cc2)cn1	COLO 205	gene expression, microarray, refers to: BHLHE40 mRNA	–	concentration not given, 6 h	baseline: untreated cells	log2 fold change	1.38
O=C(O)c1cccc(C(=O)O)c1	–	–	betaine/propylene glycol DES-water	DES mass fraction 0.70	–	apparent dissolution enthalpy	3.3 kcal/mol
CN(CC#N)C(=O)C[C@H](Nc1nc2ccccc2[nH]1)c1cccc(C(F)(F)F)c1	–	–	human	intravenous infusion, 1 mg/kg, 5 mg/mL formulation	–	steady-state volume of distribution	38.9 ± 7.99 L
C=CC(=O)Nc1cc(Nc2nccc(Nc3cc(Cl)c(F)cc3C(C)(C)O)n2)c(OC)cc1N1CC[C@@H](N(C)C)C1	–	–	human patients, plasma	oral, 400 mg daily, cycle 2 day 1, geometric mean	–	Css,max	976 ng/mL
CC(C)COC(=O)c1ccc2c(c1)/C(=N/Nc1ccc(S(N)(=O)=O)cc1)C(=O)N2	–	–	octanol/buffer	pH 11	–	logP	1.19
CCS(=O)(=O)Nc1ccc(Oc2ccc(F)cc2F)c(-c2cn(C)c(=O)c3[nH]ccc23)c1	–	–	human, plasma	oral, 2 mg, cycle 1 day 8, geometric mean	–	dose-normalised Cmax	9.94 ng/mL/mg
[18F]c1ccc(-c2ccc3c(c2)[nH]c2ccncc23)cn1	–	microPET/CT imaging	APP/PS1 mouse, AD model, heart	intravenous, 15 min	–	SUV	1.05 ± 0.514
O=S(=O)(O)Oc1cc(O)cc(/C=C/c2ccc(O)cc2)c1	–	–	human, cerebrospinal fluid	dose not given, mean	–	CSF concentration	not detected
C=CC(=O)N(C)CCOc1c(N)ncnc1-c1cc(F)cc(NC(=O)c2ccc(C3CC3)cc2F)c1C	–	–	human, plasma	oral, 60 mg single dose	–	AUC	206 ng·h/mL
Cl.[2H]C([2H])([2H])CC(=O)c1cnc(NC(=O)C2CC2)cc1Nc1cccc(-c2ncn(C([2H])([2H])[2H])n2)c1OC	–	geometric mean	human	oral, 17.5 mg single dose, fasted, liquid	–	AUC(0-24 h)	1660 ng·h/mL
CNC(=O)c1ccc(-c2cnc3ncc(Cc4ccc5ncccc5c4)n3n2)cc1F	–	–	human severe hepatic impairment NCI	oral, 200 mg single dose, mean	–	AUC(0-inf)	5310 ng·h/mL
C[C@H](Oc1ccc(Br)cc1-c1ccon1)C(=O)O	–	–	human, plasma	400 mg once daily, day 10	baseline: day 1	accumulation ratio (AUC)	0.798
C[C@@H](O)CCOC(=O)C[C@@H](C)O	–	refers to: bicarbonate	human, venous blood	oral, dose not given, 60 min	baseline: baseline	decrease	-3 mEq/L
Cn1nc2c(=O)n(C3CC3)cnc2c1[C@](O)(c1cnc(C(F)(F)F)c(Cl)c1)C(F)(F)F	–	–	humanized SCID mice, blood	1 mg/kg once daily, 6 days, infected	–	AUC(0-24 h)	6.66 µM·h
Cn1c(C(F)(F)F)cc(=O)n(-c2cc(Oc3cccnc3OCC(=O)O)c(Cl)cc2F)c1=O	–	–	Crl:CD1(ICR) mice, female, plasma	oral diet, 100 ppm in diet, day 1, 90-day toxicity study	–	Cmax	647 ng/mL
C=CC(=O)NC1CCN(c2ncc3ncnc(Nc4ccc(Oc5ccc6c(c5)ncn6C)c(C)c4)c3n2)CC1	–	–	human, male	oral, 240 mg, treatment-emergent adverse event	–	participants with headache	25%

SMILES	target or system	assay	test system	setting	how to read	measurement	value
CN1C(=O)[C@@H](NC(=O)c2nnc(Cc3ccccc3)[nH]2)COc2cccnc21	–	phase I single ascending dose	human, male and female	oral, 30 mg, fasted	–	participants with any TEAE	66.7%
CC(C)n1c(Nc2cccnc2)nc2cnc(Nc3ccc(N4CCN(C)CC4)cc3)nc21	–	refers to: eosinophil count increased	healthy male subjects	oral, 100 mg, study, added: gemfibrozil	–	subjects with adverse event	0%
Cn1cncc1[C@@](N)(c1ccc(Cl)cc1)c1ccc2c(c1)c(-c1cccc(Cl)c1)cc(=O)n2C	–	–	human	–	–	blood-to-plasma ratio	0.74
CNCc1ccc(-c2[nH]c3cc(F)cc4c3c2CCNC4=O)cc1	–	–	patients	oral, 240 mg twice daily, all grades	–	decreased appetite incidence	66.7%
Nc1c(CC(=O)O)cccc1C(=O)c1ccc(Br)cc1	–	–	cynomolgus monkey hepatocytes	–	–	scaled metabolic intrinsic clearance	47.1 mL/min/kg
Cc1cc(C)c(S(=O)(=O)N(C)CC(=O)N2CCC(C(N)=O)CC2)c(C)c1	–	–	octanol/buffer	pH 11	–	logP	1.38
CNC(=O)c1ccc(-c2cnc3ncc(Cc4ccc5ncccc5c4)n3n2)cc1F	–	–	cancer patients	oral, 600 mg twice daily, all grades RP2D expansion	–	ALT increased incidence	13%
CCc1cc(C(=O)NC)c2nccc(N3CCc4c(cc(Cn5ccnc5)cc4-c4cn(C)nc4C(F)(F)F)C3=O)c2c1	–	–	Sprague Dawley rats	oral, 100 mg/kg once daily, 7 days	–	serum TG level	0.8 ± 0.17 mmol/L
Cc1nonc1OCCNc1cc(N2CCOCC2)ccc1[N+](=O)[O-]	–	–	octanol/buffer	pH 11, known kinase inactives set	–	logP	2.86
CO[C@H]1/C=C/O[C@@]2(C)Oc3c(C)c(O)c4c(O)c(c(/C=N/N5CCN(C)CC5)c(O)c4c3C2=O)NC(=O)/C(C)=C\C=C\[C@H](C)[C@H](O)[C@@H](C)[C@@H](O)[C@@H](C)[C@H](OC(C)=O)[C@@H]1C	–	–	healthy humans	oral, dose not given	–	adverse event Dizziness	8.3%
CN[C@@H]1COc2c(S(=O)(=O)NC(=O)Nc3c4c(cc5c3CCC5)CCC4)cnn2C1	–	–	human	concentration not given, day 35	–	ALT	158 U/L
N[C@@H]1c2cccnc2[C@H](OC(=O)N2CCC(n3c(=O)[nH]c4ncccc43)CC2)CC[C@H]1c1cccc(F)c1F	–	–	human, severe hepatic impairment	oral, 75 mg	baseline: healthy subjects	decrease in CL/F	42.3%
CCC(=O)N(CCC(c1ccc2c(c1)OCO2)c1ccccc1OC)Cc1ccccc1 (stereo not drawn)	–	–	female athymic nude mouse, blood	i.p., 60 mg/kg twice daily, 14 days, group mean	–	RDW-SD	28.5 fL
Nc1ncn([C@H]2C[C@H](O)[C@@H](CO)O2)c(=O)n1	–	–	processed mouse plasma	80 ng/mL, 12 h, 4 °C, autosampler stability	–	mean deviation from nominal	-3.32%
CCN1/C(=C/C(C)=O)Sc2ccc(F)cc21	–	–	cynomolgus monkey	oral, 10 mg/kg, 2 h post-dose	baseline: pre-dose	PR interval change	103 ± 7.1%
C=CC[C@@H]1/C=C(\C)C[C@H](C)C[C@H](OC)[C@H]2O[C@@](O)(C(=O)C(=O)N3CCCC[C@H]3C(=O)O[C@H](/C(C)=C/[C@@H]3CC[C@@H](O)[C@H](OC)C3)[C@H](C)[C@@H](O)CC1=O)[C@H](C)C[C@@H]2OC	–	–	Wistar Kyoto rat, male, plasma	ip, 0.5 mg/kg/day, day 18	–	plasma total Ca2+	2.76 ± 0.05 mmol/L
C=CC(=O)NC1CCN(c2ncc3ncnc(Nc4ccc(Oc5ccc6c(c5)ncn6C)c(C)c4)c3n2)CC1	–	–	healthy male volunteers, plasma	oral tablet, 60 mg	–	dose-normalised AUC(0-inf)	223 nmol·h/L/mg
O=C(Nc1nc2cccc(-c3ccc(CN4CCS(=O)(=O)CC4)cc3)n2n1)C1CC1	–	refers to: ear and labyrinth disorders	human rheumatoid arthritis patients	oral, 75 mg once daily, 4 weeks, regardless of relatedness	–	treatment-emergent adverse events	0%
CN(C(=O)n1cnc(-c2cccnc2)c1)[C@H]1CC[C@H](O)CC1	–	–	rat, hippocampus	oral, 10 mg/kg daily for 5 days, 72 h	–	tissue concentration	14.7 ± 1.1 ng/g
CN(C)CCNS(=O)(=O)c1ccc(N/C=C2\C(=O)Nc3ccccc32)cc1	–	–	octanol/buffer, 40 mM buffer	pH 11	–	logP	2.67
N#Cc1ccc2c(c1)[C@H]1CCCN(C(=O)c3ccc4[nH]cnc4c3)[C@H]1C2	–	–	human, female	160 mg, day 7	–	androstenedione level	7.4 nmol/L
O=C1OC2(c3ccc(O)cc3Oc3cc(O)ccc32)c2ccccc21	–	–	PSP-2 condensates in DMEM	concentration not given, added: cargo 5 µM	–	encapsulation efficiency	~20%
Nc1cccc2ccc(/C=C/C(=O)c3ccc(O)cc3)cc12	–	–	toluene	20 °C	–	emission maximum	548 nm
NC[C@@H]1O[C@H](O[C@H]2[C@@H](O)[C@H](O[C@@H]3[C@@H](O)[C@H](N)C[C@H](N)[C@H]3O[C@H]3O[C@H](CO)[C@@H](O)[C@H](O)[C@H]3N)O[C@@H]2CO)[C@H](N)[C@@H](O)[C@@H]1O	–	–	NSG mice	dose not given, day 7 of treatment	–	body weight	20.5 g and 23.1 g and 23.3 g and 21.9 g and 22.8 g and 24.3 g

A few entries again:
SMILES	target or system	assay	test system	setting	how to read	measurement	value
Cc1nonc1OCCNc1cc(N2CCOCC2)ccc1[N+](=O)[O-]	–	–	octanol/buffer	pH 11, known kinase inactives set	–	logP	2.86
CO[C@H]1/C=C/O[C@@]2(C)Oc3c(C)c(O)c4c(O)c(c(/C=N/N5CCN(C)CC5)c(O)c4c3C2=O)NC(=O)/C(C)=C\C=C\[C@H](C)[C@H](O)[C@@H](C)[C@@H](O)[C@@H](C)[C@H](OC(C)=O)[C@@H]1C	–	–	healthy humans	oral, dose not given	–	adverse event Dizziness	8.3%
CN[C@@H]1COc2c(S(=O)(=O)NC(=O)Nc3c4c(cc5c3CCC5)CCC4)cnn2C1	–	–	human	concentration not given, day 35	–	ALT	158 U/L
N[C@@H]1c2cccnc2[C@H](OC(=O)N2CCC(n3c(=O)[nH]c4ncccc43)CC2)CC[C@H]1c1cccc(F)c1F	–	–	human, severe hepatic impairment	oral, 75 mg	baseline: healthy subjects	decrease in CL/F	42.3%
CCC(=O)N(CCC(c1ccc2c(c1)OCO2)c1ccccc1OC)Cc1ccccc1 (stereo not drawn)	–	–	female athymic nude mouse, blood	i.p., 60 mg/kg twice daily, 14 days, group mean	–	RDW-SD	28.5 fL
Nc1ncn([C@H]2C[C@H](O)[C@@H](CO)O2)c(=O)n1	–	–	processed mouse plasma	80 ng/mL, 12 h, 4 °C, autosampler stability	–	mean deviation from nominal	-3.32%
CCN1/C(=C/C(C)=O)Sc2ccc(F)cc21	–	–	cynomolgus monkey	oral, 10 mg/kg, 2 h post-dose	baseline: pre-dose	PR interval change	103 ± 7.1%
